Results of several laboratories.
Numbered parts are unrelated; each lists some results of a single study.

Study 1 — method: protein-binding microarray; molecule type: double-stranded DNA, one strand shown; matrix: in vitro; concentration: 250 nM; setting: 60-bp whole probe; added: salmon DNA 0.4 mg/ml; relative to: random background probes; reading: higher = stronger binding; endpoint: log fluorescence; shared flanks, not repeated: GCCTAGCAC … GTCTTGATTCGCTTGACGCTGCTG
Target: Interferon regulatory factor 7, full length, phosphomimetic (IRF7, Homo sapiens, UniProt Q92985, residues 1-503, S101K/S471D/S472D/S475D/S476D/S477D/S483D/S484D/S487D)
Construct (chain): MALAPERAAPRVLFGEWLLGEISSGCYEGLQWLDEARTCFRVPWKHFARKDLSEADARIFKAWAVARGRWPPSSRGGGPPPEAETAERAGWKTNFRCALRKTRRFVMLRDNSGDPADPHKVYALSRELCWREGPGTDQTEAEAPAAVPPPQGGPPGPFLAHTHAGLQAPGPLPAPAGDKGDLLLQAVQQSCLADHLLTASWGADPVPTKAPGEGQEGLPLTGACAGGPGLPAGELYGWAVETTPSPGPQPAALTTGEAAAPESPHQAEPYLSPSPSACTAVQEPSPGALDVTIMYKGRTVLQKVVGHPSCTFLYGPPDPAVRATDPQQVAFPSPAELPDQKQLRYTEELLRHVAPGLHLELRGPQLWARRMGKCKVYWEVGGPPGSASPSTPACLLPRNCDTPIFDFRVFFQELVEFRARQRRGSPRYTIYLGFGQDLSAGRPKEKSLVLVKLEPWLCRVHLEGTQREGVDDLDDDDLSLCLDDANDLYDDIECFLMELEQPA
GACGGTATCGGTTTCAGGACGTGCTAG: 4.93 z-score
TCAAAATTAGTGTTTGCCACTGTGCTA: -0.453 z-score
TCATCTGTTCTTTTCAGACTGTGCTAG: 0.673 z-score
TCAATTTTCTTTAACTCACTGTGCTAG: 0.437 z-score
TCAGGTCTCCTTCTCCTTTAGTGCTAG: 0.492 z-score
TCATTTTGCTTTCTTTAACTGTGCTAG: 1.97 z-score
GACGGTCTCCTTTTCCTGCCGTGCTAG: 1.05 z-score
TTAGGACTGGGTATCGGGTAGTGCTAG: 0.0652 z-score
GCACGGCTCGTTATCCTATAGTGCTAG: 0.496 z-score
TCAGTTTTTCATTTTTTACTGTGCTAG: 1.08 z-score
TCAATTGTGGGTCTTGCACTGTGCTAG: -0.623 z-score
TCAGAAATCTCTTTCCTACTGTGCTAG: 0.288 z-score
GTCCCCTGTCGGGAGGTCAGGTGCTAG: 1.73 z-score
TTAGGTTTCGTTTTCGGTTAGTGCTAG: 14.2 z-score
CTGACCTTTTCCTGAGGCAGGTGCTAG: 1.81 z-score
GACGGAATGGGGACTGGGGACGTGCTA: -0.261 z-score
GACGGTATCGACTTTCGAGACGTGCTA: 1.51 z-score
GACGGTAACGGGTTTCGGGACGTGCTA: 2.03 z-score
TTAGGTCTCCTTCTCCTCTAGTGCTAG: 0.65 z-score
GACGGTTTCCGGACTGGGGACGTGCTA: 1.02 z-score
TTAGGTATGGGACTGGGTTAGTGCTAG: -0.143 z-score
GATGATATCGGGACTGGAGACGTGCTA: -0.428 z-score
TTAGGTATCGGATTGGGTTAGTGCTAG: 2.15 z-score
CATCATTTTTCCCTCTGGAAGTGCTAG: 0.775 z-score
TTAGGTTTCGACTATCCGTTAGTGCTA: 5.53 z-score

Study 2 — method: universal PBM; molecule type: double-stranded DNA, one strand shown; matrix: in vitro; concentration: not given; reading: higher = stronger binding; endpoint: E-score
Target: Sal-like protein 4, full length isoform B (SALL4, Homo sapiens, UniProt Q9UJQ4-2, residues 1-616)
Setting: 8-mer, flanks averaged, mean of replicates
Residues (chain): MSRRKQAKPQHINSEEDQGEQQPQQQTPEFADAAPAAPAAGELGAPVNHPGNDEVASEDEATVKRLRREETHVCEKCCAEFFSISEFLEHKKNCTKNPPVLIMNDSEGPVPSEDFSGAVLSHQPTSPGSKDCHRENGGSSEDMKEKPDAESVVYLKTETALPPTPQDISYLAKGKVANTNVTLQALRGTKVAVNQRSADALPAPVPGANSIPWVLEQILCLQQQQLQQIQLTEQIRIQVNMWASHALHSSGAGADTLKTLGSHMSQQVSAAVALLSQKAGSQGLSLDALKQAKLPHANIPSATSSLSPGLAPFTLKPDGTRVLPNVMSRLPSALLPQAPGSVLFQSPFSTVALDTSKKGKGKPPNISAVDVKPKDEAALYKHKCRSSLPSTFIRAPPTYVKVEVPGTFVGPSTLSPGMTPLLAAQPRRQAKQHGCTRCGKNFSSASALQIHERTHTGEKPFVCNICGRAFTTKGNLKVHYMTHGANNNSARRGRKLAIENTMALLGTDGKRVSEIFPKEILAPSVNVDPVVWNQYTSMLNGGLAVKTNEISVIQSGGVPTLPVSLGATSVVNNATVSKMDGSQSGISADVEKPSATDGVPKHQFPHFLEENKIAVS
TCCAGTCA: -0.0933
CAAAGGTC: -0.234
CACATTCC: 0.0215
ATGGTTTG: -0.0638
ATCTTTGC: 0.142
CTTACCAA: 0.2
TTCGAGAA: 0.0615
ATGTTAAT: 0.291
GGACCCAA: -0.14
CACCAAGG: -0.293
GTGTTGAA: 0.0279
AAGGACAG: -0.148
AGGCAAAG: 0.0464
GTTCGCTA: 0.0852
ATGGCCAT: 0.105
CAGAATCA: -0.0233
AGCATAAT: 0.321

Study 3 — method: protein-binding microarray; molecule type: double-stranded DNA, one strand shown; matrix: in vitro; concentration: 0.8 µM; setting: whole 60-bp probe, no competitor; reading: higher = stronger binding; endpoint: fluorescence intensity; shared flanks, not repeated: … GTCTTGATTCGCTTGACGCTGCTG
Target: Centromere-binding protein 1, full length, N-terminal tag (CBF1, Saccharomyces cerevisiae, UniProt P17106, residues 1-351)
UniProt P17106, sequence (whole entry, looked up): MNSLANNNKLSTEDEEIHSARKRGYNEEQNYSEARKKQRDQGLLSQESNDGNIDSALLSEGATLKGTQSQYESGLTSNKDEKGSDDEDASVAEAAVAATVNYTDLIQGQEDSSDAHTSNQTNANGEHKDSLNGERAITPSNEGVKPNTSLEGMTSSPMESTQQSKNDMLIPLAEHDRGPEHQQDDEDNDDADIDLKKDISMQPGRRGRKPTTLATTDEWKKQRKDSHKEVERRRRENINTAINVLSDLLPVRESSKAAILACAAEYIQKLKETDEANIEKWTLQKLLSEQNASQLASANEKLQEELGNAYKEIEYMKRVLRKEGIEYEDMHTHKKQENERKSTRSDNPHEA
CTATACGGTGCCTCGCACATGAATGTTATCCGGTTC: 528 a.u.
GAACGGCTGAGAGGTGACCTGAAAGAAAGTAGTTAG: 527 a.u.
CTAAGCCAAACTCCCCACCTGACAATGTCTTCATTC: 658 a.u.
CTACCCTTATCTGGTCACGTGAATTAAACTTCGTTC: 27800 a.u.
GAACCGTTACATTTGCACGTTCAGCGTAATGAGTAG: 674 a.u.
GAAAATGGATATATACATGTGGTACTATTTCTCTAG: 696 a.u.
CTAAGAATGCTATATCTGATGATTAAAAATAGCTTC: 549 a.u.
GAATGAGGACGAAGTGGTGACACCCGCTGAGGATAG: 529 a.u.
GAACTGTGTAGGAAAGAGGTGACGTCCTAGGCTTAG: 518 a.u.
CCTAACTACTATAGTCACACGTGATAGCTTCGTACA: 6830 a.u.
CTATCGCATTAGCACCTGAGTATATATCTGACATTC: 637 a.u.
GAATCTGTGGACCCCCTCACCTTATACCACTACTAG: 532 a.u.
CTAGCAGGAAATAGCCCCGTGCTATTCCATCCTTTC: 727 a.u.
GAAGGTATTTTATGTCACGTACGGTTTTCAAAATAG: 1260 a.u.
GAATATGTCACTAACGACGTGCACCAACTTGCGTAG: 522 a.u.
GAAAAAATTGAGAGTGATGTCGCTTTAACTTGATAG: 463 a.u.
CTATTATTTCTTGTGGTCATTTATTGCTTTTATTTC: 582 a.u.
GAACCCCCCTTGCGCCTCCTGATTCACGTGATGTAG: 2410 a.u.
GAACATAGATAGATAAACGTGCAATGAAATTCGTAG: 735 a.u.
GAATACCCTGCCGGCCACATGCCGAATTAAATTTAG: 664 a.u.

Study 4 — method: protein binding microarray; molecule type: double-stranded DNA, one strand shown; matrix: in vitro; concentration: not given; relative to: not given; reading: higher = stronger binding; endpoint: E-score
Target: Histone acetyltransferase KAT6A, both winged helices, GST fusion (KAT6A, Homo sapiens, UniProt Q92794, residues 1-181)
Setting: 8-mer, flanks averaged, mean of 2 arrays, mostly near background
Construct (chain): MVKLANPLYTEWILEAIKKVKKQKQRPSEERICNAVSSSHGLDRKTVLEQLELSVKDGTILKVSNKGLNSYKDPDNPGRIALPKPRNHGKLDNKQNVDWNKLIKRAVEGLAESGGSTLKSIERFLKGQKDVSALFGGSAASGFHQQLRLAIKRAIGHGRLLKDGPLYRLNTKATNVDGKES
GGCCACAC: -0.0385
CGTGAATC: 0.065
CAGACGAC: -0.0852
GGATCATA: 0.0278
CAAGAGCA: -0.207
GTTAGCAA: -0.181
CTCGTCCC: -0.0587
ACGTGGCG: 0.147
AACGTCGC: 0.0896
CTTCCCAC: 0.0028
GGGTATCA: -0.0711
GCCAAGGC: -0.107
TCCACCAA: -0.256
ACACCTCT: -0.0578
CCCTGTTA: -0.108
AGCCGGAT: 0.0985
AGAAAGAT: -0.168
ACTGAGTG: -0.159
CACCGCGC: 0.382
ACGGTGTG: 0.053
ACGCCCAA: -0.181
GCCTATAA: -0.126
ACGCATGG: 0.0917
CACAATCG: 0.0656
GACTGATA: -0.208

Study 5 — method: RNA Bind-n-Seq; molecule type: RNA; matrix: in vitro; concentration: 365 nM; relative to: no-protein control; reading: higher = stronger binding; endpoint: RBNS enrichment (R)
Target: RNA binding protein fox-1 homolog 2, RRM domain, GST-SBP tag (RBFOX2, Homo sapiens, UniProt O43251-10, residues 100-194)
Setting: natural RNA segment, single round, ends assumed
Shared flanks, not repeated: GGGAGUUCUACAGUCCGACGAUC … UGGAAUUCUCGGGUGCCAA
Target sequence (chain): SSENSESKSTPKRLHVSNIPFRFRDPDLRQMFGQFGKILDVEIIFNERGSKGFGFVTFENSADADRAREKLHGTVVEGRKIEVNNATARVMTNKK
UAUAUAUAUCUCAGGUUUUUAGACUGGUUGACAGAACAAAGCCUGUUUUAACAGUGGAACCUUAAAGAGCACACCUACACCAAACCACCAAAACCACGCCGAGCACAGUG: 0.386
UAUUUUAAGCCUUAUCCAGCAGCCAUAAUUUGAAUAACUCUACGAGACCAGAGAGACUGUAGUUCCCUAUUUUAACCUCAAUUAUGCAUUUGUCCCCCAACCCCACUGAG: 1.28
CCGCUCAGCCCAGCUGUUGGGAACAGCAUGGAGGCAGAUGUGGGGCUGAGCUGGGGAAUCAGGGUAAAAGGUGCAGGUGUGGAGAGAGAGGCUUCAAUCGGCUUGUGGGU: 14.7
UAGGAGCCCUUGCUUGGGGUACAGGUUUUAUAAAUCUGAGCCUUCAACAGUACCUCUCUUCUAAUGGGCUUCAGUCCUCCACUGAGGCAGAAUCUCUGCUGUGGGGAGAG: 0.202
GAGGGGGAAAUGCCUUUGCAGCUCCAUUUAGUUGUUUGGAGACUGCUCCUGGGAUGCUAACCUGAUGGCCAUAGACACGGUGGGCUGGAGGCGUGGCUGGAUCUGCCCAA: 0.779
ACCCACAACUAAAAAUGUAUCCACAUAGUAGUGUUCGUUUGUCGAGAGGAUUUCCUGAGACUGGUUUGGAUCUCCCUGCAUGACAGUCCCCCAGAAACUUAGUGAGUCCU: 13.4
GACCACAGCACACCCAAGGACAUGUGCCUGUCCGGGAGGGCAGCAUGCCGACUUGAUCUUUGAGCCCACUCGUCUGCAUUUGUUCUUUGGGAUUAUAUAAUCUAGGGCCA: 6.41
ACACGGAAGCACGGGUCUCUUCUCAAUCUUUGCUGCAUUUGGAAAAUGUUCCCUCCCAUCUCAGGCCAGCGCCAUGUCGAGGCAUCUUCAGUCCACCCCUGCCUAAGGCU: 0.387
UCUGAGGAACCUUGUGUCCAGUUGUUACAAAGUUUAAGCUUUGAACCUAACCUGCAUCCCAUUUCCAGCCUCUUUUCAAGCUGAGAAAAAAAAAAAAAAACACGUUUGAU: 0.973
CACCUAAAAGGGUUUUGCUUCGGGAUUUUUGUUUGUUCGGUUUUUUUGUUUUUUUAAAGAAAAAGAAAAAUGAGAAGAAAAAAAUAAAAGCUCCAGCGUCUUUCUUAUAA: 0.837
GUUUGGCUUAAACGUCAAAGCCGUGACAAUUUGUUCUUUGAUGUGAUUGUAUUUCCAAUUUCUUGUUCAUGUAAGAUUUCAAUAAAACUCAAAAAUCUAUUCAAAACAUC: 0.537
AAUACUAGUCCAAAUUUAAUAUUUGACAGAAUUCGUAUUGCUUGCUAUAACAAGGAUAGUUUAUAGUCUUUCCAGUUAUUUAAUGAAUAAAUGACGUUUAUUAAAAACAU: 0.644

Repeated from above (study 3):
GAAAATGGATATATACATGTGGTACTATTTCTCTAG: 696 a.u.
CTAAGAATGCTATATCTGATGATTAAAAATAGCTTC: 549 a.u.
GAATGAGGACGAAGTGGTGACACCCGCTGAGGATAG: 529 a.u.
GAACTGTGTAGGAAAGAGGTGACGTCCTAGGCTTAG: 518 a.u.
CCTAACTACTATAGTCACACGTGATAGCTTCGTACA: 6830 a.u.
CTATCGCATTAGCACCTGAGTATATATCTGACATTC: 637 a.u.
GAATCTGTGGACCCCCTCACCTTATACCACTACTAG: 532 a.u.
CTAGCAGGAAATAGCCCCGTGCTATTCCATCCTTTC: 727 a.u.
GAAGGTATTTTATGTCACGTACGGTTTTCAAAATAG: 1260 a.u.
GAATATGTCACTAACGACGTGCACCAACTTGCGTAG: 522 a.u.
GAAAAAATTGAGAGTGATGTCGCTTTAACTTGATAG: 463 a.u.
CTATTATTTCTTGTGGTCATTTATTGCTTTTATTTC: 582 a.u.
GAACCCCCCTTGCGCCTCCTGATTCACGTGATGTAG: 2410 a.u.
GAACATAGATAGATAAACGTGCAATGAAATTCGTAG: 735 a.u.
GAATACCCTGCCGGCCACATGCCGAATTAAATTTAG: 664 a.u.
